Measured values pooled from the literature.
Protocols differ between the studies behind these lines. ± gives the spread as reported.

C[C@H]1N=C(c2ccccc2F)c2cc(Br)ccc2-n2cnc(C(=O)O)c21 gave a concentration of 239 nM (Swiss Webster mice, blood; oral, 25 mg/kg, 60 min, propylene glycol 40%, HPMC 60%).
The concentration of COc1ccc(C(=O)NCc2cc(C(C)C)no2)cc1OC1CCN(C)CC1 is reported as 11.8 ng/g (male Sprague-Dawley rat, CSF; intravenous, 1 mg/kg, 15 min).
c1cc2ccc3cccc4ccc(c1)c2c34 has a concentration of 1.4 ± 0.2 ng/g (male Wistar rats, plasma; oral, 4 mg/kg, 24 h).
Nc1nc(N)nc(N)n1 gave a concentration of 32100 to 767000 ng/mL (LC-MS/MS; rat CD IGS, female, pregnant and non-pregnant, serum; oral, 1000 mg/kg/day, 10 days, range).
Cc1c(P(=S)(c2ccccc2)c2ccccc2)n2ccccc2[n+]1C/C=C/c1ccccc1 gave a concentration of 28 ng/g (mouse, brain; intraperitoneal, 10 mg/kg, 8 h).
CN[C@@](C)(C[18F])C(=O)O gave a tracer uptake of 3.6 %ID/g (DU-145 tumour model; host not given, kidney; 2 h, tumour-bearing).
With O=C(NCCS)c1cccc(C(=O)NCCS)c1 the concentration was 230 ng/mL (male Sprague-Dawley rat, plasma; intravenous, 1 mg/kg, 30 min).
O=c1[nH]c(=O)[nH]c(=O)[nH]1 gave a concentration of 2300 to 173000 ng/mL (LC-MS/MS; rat CD IGS, female, non-pregnant, serum; oral, 1000 mg/kg/day, 10 days, range).
For CC(C)C[C@H](NC(=O)[C@H](CCC(=O)O)NC(=O)[C@H](CCC(=O)O)NC(=O)[C@H](CC(=O)O)NC(=O)[C@H](CCC(=O)O)NC(=O)[C@H](CCC(=O)O)NC(=O)[C@H](CCC(=O)O)NC(=O)[C@@H](N)CC(=O)O)C(=O)O, the concentration was 4.25 ng/mL (rat, CSF; intravenous, 11.0 mg/kg, 150 min).

For quick reference, copied from above:
The concentration of COc1ccc(C(=O)NCc2cc(C(C)C)no2)cc1OC1CCN(C)CC1 is reported as 11.8 ng/g (male Sprague-Dawley rat, CSF; intravenous, 1 mg/kg, 15 min).
